Measured values collected from several papers.
Protocols differ between the studies behind these lines. “And” joins repeats or separate records; there may be more than shown. Numbers after ± are the reported error. ≈ marks a conversion by molar mass, not a printed value.

SMILES	test	test system	setting	endpoint	result
CCCSc1nc(N[C@@H]2C[C@H]2c2ccc(F)c(F)c2)c2nnn([C@@H]3C[C@H](O)[C@@H](O)[C@H]3O)c2n1	–	rat, female, plasma	oral, 20 mg/kg/day ticagrelor, day 1	AUC	5.4 µM·h
Cc1ncsc1-c1ccc([C@H](C)NC(=O)[C@@H]2C[C@@H](O)CN2C(=O)[C@@H](NC(=O)CCCCCCC(=O)N2CCN(C[C@]3(C)CCC(c4ccc(Cl)cc4)=C(CN4CCN(c5ccc(C(=O)NS(=O)(=O)c6ccc(N[C@H](CCN7CCOCC7)CSc7ccccc7)c(S(=O)(=O)C(F)(F)F)c6)cc5)CC4)C3)CC2)C(C)(C)C)cc1	–	naturally aged mice	intraperitoneal, 5 mg/kg every 3 days	body and liver weight	no effect
CN(Cc1ccncc1)c1ccc2c(c1)c(=O)c(C(N)=O)cn2-c1ccc(F)cc1	–	rat, plasma	–	unbound fraction	0.089
O=C(O)c1cccc(-c2nc(-c3ccccc3F)c3sccn23)c1	–	human liver microsomes	1 µM	CLint	30.2 µL/min/mg
COc1ccc(CC(=O)OCc2ccc(-n3cccn3)cc2)cc1F	–	–	pH 7.4	logD	3.31
Cc1cc(NC(=O)c2cccc(NC(=O)C3=CC(C)(C)CCC3=O)c2)ccc1Nc1nccc(-c2cccnc2)n1	–	rat plasma	1 µM, 60 min	compound remaining	98.4%
O=C(OC(C(F)(F)F)C(F)(F)F)N1Cc2ccc(Br)cc2C1	–	male CD-1 mouse, brain	oral, 8 mg/kg, 30 min, cassette dosing	brain concentration	0.008 ± 0.002 µg/g
O=C1Nc2cccc(C#CC3(O)CCNCC3)c2/C1=C/c1cc2ccccc2[nH]1	–	C57BL/6 mouse	oral, 10 mg/kg	oral bioavailability	< 5%
CC1(CNC(=O)[C@H](CN)NC(=O)c2ccc(C#CC#Cc3ccccc3)cc2)NC(=O)NC1=O (stereo partly drawn)	–	octanol/buffer	pH 11	logD	1.71
Cc1cc(-n2cc(C(N)=O)c(=O)c3cc(CCc4cnc(C)nc4)ccc32)sn1	–	rat, plasma	–	unbound fraction	0.22
CN(C)c1ccc(C2=N[C@@H](C(=O)NO)CO2)cc1	–	octanol/buffer	pH 11	logD	> 4.38
CCOc1ccccc1Nc1nnc(SCC(=O)Nc2cc(F)ccc2F)s1	UV-vis	PBS with 1% DMSO	pH 7.4	kinetic solubility	125 µM (≈ 52.8 µg/mL)
NC(=O)c1cn(-c2ccc(F)cc2)c2ccc(COc3ccc(Cl)nc3)cc2c1=O	–	rat, plasma	–	unbound fraction	0.033
CC(=O)N1CC=C(c2cc3c(Nc4cc5ncsc5cc4F)ncnc3s2)CC1	–	human liver microsomes	1 µM	intrinsic clearance	12 mL/min/g protein
CCCc1ccc(-c2ccc(C3=N[C@@H](C(=O)NO)CO3)cc2)cc1	–	octanol/buffer	pH 11	logD	2.41
NC(=O)c1cn(-c2ccc(F)cc2)c2ccc(NCCc3ccncc3)cc2c1=O	–	rat, plasma	–	unbound fraction	0.172
CCCn1c(NCc2cccc(OC)c2O)nc2ccccc21	–	mouse, liver microsomes	1 µM, 37 °C, together with: NADPH	half-life	4.3 min

SMILES	test	test system	setting	endpoint	result
Nc1ncc(-c2ccc3ncnc(N4CCc5cc(F)c(Cl)cc54)c3c2)cn1	–	CD1 mouse, plasma	oral, 100 mg/kg	Cmax	4730 ng/mL
Cc1ncc(CCc2ccc3c(c2)c(=O)c(C(N)=O)cn3-c2ccc(F)cc2)cn1	–	rat	iv, 0.2 mg/kg, 15 min, cassette dosing	Kp,uu brain/plasma	0.05
NC1CCN(Cc2ccn3ncnc(Nc4cccc(-c5cnco5)c4)c23)CC1	–	mouse, brain	intraperitoneal, 30 mg/kg, 90 min	total brain concentration	1.8 µM and 1.84 µM
Cc1ncc(OCc2ccc3c(c2)c(=O)c(C(N)=O)cn3-c2ccc(F)cc2)cn1	–	rat, plasma	–	fraction unbound	> 10%
CC(C)n1nnc(-c2cc(O)cc(Nc3ncnn4ccc(CN5CCC(N)CC5)c34)c2)n1	from plasma protein binding	mouse, plasma	subcutaneous, 10 mg/kg, 90 min	free plasma concentration	0.013 µM
O=C(COc1ccc(C=CC2=[N+]3C(=Cc4ccc(-c5ccc[nH]5)n4[B-]3(F)F)C=C2)cc1)NCCCCCC(=O)N1CCN(C(=O)c2cc(Cc3n[nH]c(=O)c4ccccc34)ccc2F)CC1	–	mouse, plasma	intravenous, 75 nmol	C0	22.8 µM
CCN(CC)c1ccc2c(-c3ccccc3C(=O)N(C)CCCC(=O)N[C@@H](CC(C)C)C(=O)N[C@@H](CCCNC(=N)N)C(=O)N[C@@H](CCCNC(=N)N)C(=O)N[C@@H](C)C(=O)N[C@@H](CO)C(=O)N[C@@H](CC(C)C)C(=O)NCC(=O)O)c3ccc(=[N+](CC)CC)cc-3oc2c1	UV/Vis	phosphate buffer 25 mM	100 µM, pH 7.4, at 560 nm	molar extinction coefficient	37200 M⁻¹ cm⁻¹
NC(=O)c1cn(-c2ccc(F)cc2)c2ccc(NCc3cccnc3)cc2c1=O	–	rat, brain homogenate	–	fraction unbound	0.095
CC(C)(C)NC(=O)C(c1c(C(=O)O)[nH]c2cc(Cl)ccc12)N(C=O)Cc1cc(F)c(F)c(F)c1 (racemic)	–	water	–	aqueous solubility	0.85 mg/mL (≈ 1.71 mM)
CC[C@H](C)[C@H](NC(=O)[C@H](Cc1ccccc1)NC(=O)[C@H](CC(=O)O)NC(=O)[C@H](CCCNC(=N)N)NC(=O)[C@H](Cc1ccccc1)NC(=O)[C@H](Cc1ccccc1)NC(=O)[C@H](CCCCN)NC(=O)[C@H](CO)NC(=O)[C@H](CC(C)C)NC(=O)[C@H](CCCNC(=N)N)NC(=O)[C@H](CCSC)NC(=O)[C@H](C)N)C(=O)N[C@@H](CC(C)C)C(=O)N[C@@H](CCC(N)=O)C(=O)N[C@@H](CCCNC(=N)N)C(=O)N[C@@H](CCCCN)C(=O)N[C@@H](CCCCN)C(=O)O	CD thermal denaturation	2.5 mM DPC	–	melting temperature	57.1 °C
O=C(NO)[C@H]1COC(c2ccc(F)cc2)=N1	–	aqueous buffer	pH 7.4	solubility	69.5 mg/mL (≈ 310 mM)
Cc1c(-c2ccccc2)nn2c(=O)cc(-c3cccc(-c4nnn[nH]4)c3)[nH]c12	–	mouse	2 mg/kg, 24 h	plasma level	not detected
Cc1n[nH]c(C)c1CCOC(=O)c1cccc2c1oc(=O)n2C	–	BALB/c mouse, plasma	intravenous, 2 mg/kg	volume of distribution	0.61 L/kg
NC(=O)c1cn(-c2ccc(F)cc2)c2ccc(NCCc3cccnc3)cc2c1=O	–	rat, plasma	–	unbound fraction	0.037
CN(C)c1ccc(C2=NC(C(=O)NO)CS2)cc1 (stereo not drawn)	–	aqueous buffer	pH 7.4	solubility	42.5 mg/mL (≈ 160 mM)
COc1ccc2c(c1)S(=O)(=O)N(CCCCCc1ccccc1)C(=O)O2	–	DPBS and DMEM	–	chemical stability	stable

For quick reference, copied from above:
SMILES	test	test system	setting	endpoint	result
CN(C)c1ccc(C2=NC(C(=O)NO)CS2)cc1 (stereo not drawn)	–	aqueous buffer	pH 7.4	solubility	42.5 mg/mL (≈ 160 mM)
CC(C)n1nnc(-c2cc(O)cc(Nc3ncnn4ccc(CN5CCC(N)CC5)c34)c2)n1	from plasma protein binding	mouse, plasma	subcutaneous, 10 mg/kg, 90 min	free plasma concentration	0.013 µM
